Assay results from different studies.
Every numbered part comes from another study and shows a few of its results, in no order. Positions count from the first letter of the parent shown.

Sample 1 — method: protein-binding microarray; form: double-stranded DNA, one strand shown; sample: in vitro; concentration: 250 nM; setting: 60-bp whole probe; added: salmon DNA 0.4 mg/ml; reference: random background probes; direction: higher = stronger binding; all sequences stand within: GCCTAGCAC … GTCTTGATTCGCTTGACGCTGCTG
Target: Interferon regulatory factor 5, full length, phosphomimetic (IRF5, Homo sapiens, UniProt Q13568-2, residues 1-514, K96S/S451D/S453D/S456D/S462D)
| Strand | log fluorescence [z-score] |
| --- | --- |
| GACGGACTGGGGACTAGGGACGTGCTA | -0.396 |
| GACGTTCTCAGTATCGAGACGTGCTAG | 1.82 |
| TTAGATACCAGTCTCGATTAGTGCTAG | 0.919 |
| ACTAGTGTTTTTCTCCTATTGTGCTAG | 1.02 |
| TCAATGTTACATTTATAACTGTGCTAG | 0.546 |
| GACGGACTGGGGCATCGGGACGTGCTA | -0.763 |

Sample 2 — target: CCND2, cyclin fold, Cln2 fusion (human); method: yeast growth competition, sequencing; sample: yeast; setting: strong parent motif; reference: not given; direction: higher = stronger binding
Parent: E2F1 docking peptide (human); PPVKRRLDFETDH
| Variant | normalised enrichment score |
| --- | --- |
| PPVKYRLDFETDH [R5Y] | 0.366 |
| PPVKRRNDFETDH [L7N] | 0.0985 |
| PPVKRRLDFEADH [T11A] | 1.68 |
| PPVKRRLDVETDH [F9V] | 0.204 |
| PIVKRRLDFETDH [P2I] | 1.04 |

Sample 3 — method: universal PBM; form: double-stranded DNA, one strand shown; sample: in vitro; concentration: 600 nM; direction: higher = stronger binding
Target: Sal-like protein 4, full length isoform A (SALL4, Homo sapiens, UniProt Q9UJQ4, residues 1-1053)
UniProt Q9UJQ4, sequence (whole entry, looked up): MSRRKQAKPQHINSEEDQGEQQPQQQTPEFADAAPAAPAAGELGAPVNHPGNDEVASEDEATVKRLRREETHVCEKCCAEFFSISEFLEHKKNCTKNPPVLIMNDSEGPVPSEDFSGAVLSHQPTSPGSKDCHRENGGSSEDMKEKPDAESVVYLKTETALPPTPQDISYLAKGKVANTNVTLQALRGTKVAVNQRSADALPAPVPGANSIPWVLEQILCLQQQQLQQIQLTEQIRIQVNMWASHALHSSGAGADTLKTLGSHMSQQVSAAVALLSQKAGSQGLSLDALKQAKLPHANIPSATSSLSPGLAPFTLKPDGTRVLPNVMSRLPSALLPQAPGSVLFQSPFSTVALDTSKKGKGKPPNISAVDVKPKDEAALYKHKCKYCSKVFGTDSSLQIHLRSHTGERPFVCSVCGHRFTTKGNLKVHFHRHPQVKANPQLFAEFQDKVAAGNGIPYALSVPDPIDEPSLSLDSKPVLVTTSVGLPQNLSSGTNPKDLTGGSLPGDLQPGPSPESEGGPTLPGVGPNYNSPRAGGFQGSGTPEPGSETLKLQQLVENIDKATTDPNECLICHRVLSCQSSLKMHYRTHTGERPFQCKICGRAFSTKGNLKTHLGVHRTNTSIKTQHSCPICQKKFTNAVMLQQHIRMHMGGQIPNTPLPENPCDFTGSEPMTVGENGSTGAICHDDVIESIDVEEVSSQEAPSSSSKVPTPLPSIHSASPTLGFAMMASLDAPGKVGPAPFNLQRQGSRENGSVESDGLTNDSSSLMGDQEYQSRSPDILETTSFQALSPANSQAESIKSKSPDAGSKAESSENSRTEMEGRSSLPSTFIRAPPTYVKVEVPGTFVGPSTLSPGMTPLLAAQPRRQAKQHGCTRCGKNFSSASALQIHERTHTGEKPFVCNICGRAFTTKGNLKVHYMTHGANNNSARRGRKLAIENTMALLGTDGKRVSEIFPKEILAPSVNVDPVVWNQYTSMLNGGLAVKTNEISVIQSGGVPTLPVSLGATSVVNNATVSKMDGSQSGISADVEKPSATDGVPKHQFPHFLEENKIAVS
Setting: 8-mer, flanks averaged, mean of replicates
| Strand | E-score |
| --- | --- |
| AAGGACCA | -0.25 |
| CGTGCTGC | -0.187 |
| CCAATATC | 0.176 |
| AGCGGGCG | -0.327 |
| ATTGGGGA | -0.152 |

Single results of other studies
| Molecule | target | test | system | setting | how to read | endpoint | value |
| --- | --- | --- | --- | --- | --- | --- | --- |
| PhoQ, residues 284 288 289 292 302 303 TLSLKA | PhoP, residues 12 14 15 18 19 TTLRV (Escherichia coli, UniProt P23836) | Sort-seq, measured: YFP reporter | E. coli | PhoQ-PhoP variant library, added: 10 µM Mg2+ | reference: high Mg2+ state, higher = stronger signaling | fold induction | 9.79 |

For quick reference, copied from above (sample 2):
| Variant | normalised enrichment score |
| --- | --- |
| PPVKRRLDFEADH [T11A] | 1.68 |
| PPVKRRLDVETDH [F9V] | 0.204 |
